Results gathered from unrelated publications.
Several values in a cell are separate wells, animals, samples, runs or records. Numbers after ± are the reported error.
UniProt Q92995, sequence (whole entry, looked up): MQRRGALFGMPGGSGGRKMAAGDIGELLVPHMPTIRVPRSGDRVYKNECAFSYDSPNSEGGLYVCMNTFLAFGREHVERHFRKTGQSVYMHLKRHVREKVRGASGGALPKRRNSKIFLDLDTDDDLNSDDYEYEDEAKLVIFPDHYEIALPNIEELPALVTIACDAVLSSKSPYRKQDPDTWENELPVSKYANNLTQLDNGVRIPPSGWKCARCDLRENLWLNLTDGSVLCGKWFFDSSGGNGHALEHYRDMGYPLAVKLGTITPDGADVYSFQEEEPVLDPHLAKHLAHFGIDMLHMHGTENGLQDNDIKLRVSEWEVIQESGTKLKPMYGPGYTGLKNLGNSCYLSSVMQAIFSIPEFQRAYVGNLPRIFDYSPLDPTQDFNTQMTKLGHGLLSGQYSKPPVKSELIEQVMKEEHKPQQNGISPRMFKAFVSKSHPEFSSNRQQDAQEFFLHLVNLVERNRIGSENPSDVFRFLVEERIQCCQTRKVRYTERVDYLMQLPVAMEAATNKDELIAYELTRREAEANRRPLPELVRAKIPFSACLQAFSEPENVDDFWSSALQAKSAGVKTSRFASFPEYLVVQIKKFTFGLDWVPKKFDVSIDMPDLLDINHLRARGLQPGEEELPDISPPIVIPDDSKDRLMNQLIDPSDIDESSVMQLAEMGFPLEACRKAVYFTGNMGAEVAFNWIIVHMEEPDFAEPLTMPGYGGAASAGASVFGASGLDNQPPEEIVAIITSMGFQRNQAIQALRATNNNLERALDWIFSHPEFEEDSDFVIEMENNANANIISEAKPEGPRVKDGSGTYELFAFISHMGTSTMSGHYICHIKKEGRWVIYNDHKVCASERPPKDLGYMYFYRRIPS
UniProt Q9UBN7, sequence (whole entry, looked up): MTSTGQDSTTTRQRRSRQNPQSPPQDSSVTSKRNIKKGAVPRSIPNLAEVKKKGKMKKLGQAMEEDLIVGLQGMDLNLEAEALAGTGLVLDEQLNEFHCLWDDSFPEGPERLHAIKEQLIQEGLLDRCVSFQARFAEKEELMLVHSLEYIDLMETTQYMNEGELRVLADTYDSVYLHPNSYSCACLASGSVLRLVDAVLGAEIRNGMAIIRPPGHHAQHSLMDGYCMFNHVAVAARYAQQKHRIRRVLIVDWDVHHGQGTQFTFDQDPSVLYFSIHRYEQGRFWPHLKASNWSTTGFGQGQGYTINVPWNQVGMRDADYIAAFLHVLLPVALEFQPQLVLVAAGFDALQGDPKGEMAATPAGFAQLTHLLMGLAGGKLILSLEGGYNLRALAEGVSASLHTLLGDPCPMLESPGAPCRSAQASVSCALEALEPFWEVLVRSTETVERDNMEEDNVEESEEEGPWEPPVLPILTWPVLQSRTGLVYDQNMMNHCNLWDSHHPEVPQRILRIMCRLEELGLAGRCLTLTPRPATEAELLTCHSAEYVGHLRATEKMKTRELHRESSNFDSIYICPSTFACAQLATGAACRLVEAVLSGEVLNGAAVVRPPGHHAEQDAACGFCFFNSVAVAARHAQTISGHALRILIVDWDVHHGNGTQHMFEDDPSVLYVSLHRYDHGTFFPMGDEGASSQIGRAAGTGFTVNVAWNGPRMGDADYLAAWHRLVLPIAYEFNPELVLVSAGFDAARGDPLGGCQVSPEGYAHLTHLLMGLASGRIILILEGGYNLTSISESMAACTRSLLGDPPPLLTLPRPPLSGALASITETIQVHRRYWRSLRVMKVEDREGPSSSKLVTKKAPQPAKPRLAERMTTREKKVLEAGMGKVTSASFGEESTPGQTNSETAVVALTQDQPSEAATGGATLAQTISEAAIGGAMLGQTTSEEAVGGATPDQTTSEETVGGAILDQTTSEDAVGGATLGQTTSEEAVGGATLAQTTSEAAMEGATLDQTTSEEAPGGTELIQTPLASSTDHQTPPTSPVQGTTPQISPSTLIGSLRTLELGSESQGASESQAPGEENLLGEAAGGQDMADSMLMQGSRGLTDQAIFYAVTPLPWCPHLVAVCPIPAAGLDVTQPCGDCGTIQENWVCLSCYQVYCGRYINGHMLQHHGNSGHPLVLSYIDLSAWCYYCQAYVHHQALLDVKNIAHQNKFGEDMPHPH

With `COc1ccccc1CN[C@H]1CCCN[C@H]1c1ccccc1` the CC50 was greater than 25 µM (PBMC).
`CC(=O)Nc1c2sscc-2[nH]c1=O` has an EC50 of 3 ± 0.3 µM (HEK293T; cytotoxicity).
`Cc1cc(C)c(CNC(=O)c2cc(Cl)c3c(c2C)O[C@@](C)([C@H]2CC[C@H](N(C)C)CC2)O3)c(=O)[nH]1` has an efflux ratio of 48.6 (Caco-2; 3 µM).
For `COc1cc(/C=C/C=C2\SC(=S)NC2=O)cc(OC)c1O`, the viability was 1.02 and 1 (HEK-293T; CellTiter-Glo; 10 µM, 24 h, unit not given; relative to: untreated).
The CC90 of `Nc1ccn(C[C@@H](CO)OCP(=O)(O)O)c(=O)n1` is reported as greater than 20 µM (HFF; 7 days).
For `O=C(C[C@@H](C(F)F)n1ccc(F)n1)N1CCC(O)(Cn2cnc3c(cnn3-c3ccc(F)cc3)c2=O)CC1`, the viability was 27.2% and 18.9% (CAPAN-1 parental; SRB; 2.222 µM, 5 days).
For `CCCC(CCC)NC(=O)c1ccc2c(c1)OCO2`, “relative mitotic index” read 102% (CHO-WBL; 0.19 mg/mL, 3 h, with rat liver S9).
With `COc1ccc(-c2coc3cc(O)ccc3c2=O)cc1` the amount transported was 2.32 ± 0.01% (Caco-2 monolayers; basolateral to apical transport; 100 µg/mL, 2 h).
With `CC(C)C[C@H](NC(=O)CC[C@@H](C)[C@H]1CC[C@H]2[C@@H]3[C@H](O)C[C@@H]4C[C@H](O)CC[C@]4(C)[C@H]3C[C@H](O)[C@]12C)C(=O)O` the recovery was 114% (HEK293T; LC-MS; serum-free conditioned medium; 100 µM, overnight; relative to: non-conditioned medium).
The viability of `CC(=O)Nc1cccc(-n2c(=O)n(C3CC3)c(=O)c3c(Nc4ccc(I)cc4F)n(C)c(=O)c(C)c32)c1` is reported as 0.832 and 0.803 (LoVo (KRAS G13D); resazurin; 1.56 nM, 72 h, unit not given; relative to: DMSO).
For `CC[C@]1(O)C[C@H]2CN(CCc3c([nH]c4ccccc34)[C@@](C(=O)OC)(c3cc4c(cc3OC)N(C=O)[C@H]3[C@@](O)(C(=O)OC)[C@H](OC(C)=O)[C@]5(CC)C=CCN6CC[C@]43[C@@H]65)C2)C1`, the neurite degeneration was 88.7% and 78.1% and 79.8% and 74.8% and 87.9% (rat DRG neurons (Sprague Dawley); 40 nM, 48 h).
For `SC[C@H]1SC[C@@H]2Sc3ccccc3N21`, cytotoxicity read “not toxic” (L929; MTT; 100 µg/mL, 24 h).
The amount transported of `C[C@@H]1O[C@@H](O[C@H]2[C@H](Oc3cc(O)c4c(c3)O[C@H](c3ccc(O)cc3)CC4=O)O[C@H](CO)[C@@H](O)[C@@H]2O)[C@H](O)[C@H](O)[C@H]1O` is reported as 16.6 ± 0.9% (Caco-2 monolayers; apical to basolateral transport; 100 µg/mL, 2 h).
`Cc1nn(-c2nc3c(F)cc(F)cc3s2)c(O)c1C(c1ccc(C(F)(F)F)cc1)c1c(C)nn(-c2nc3c(F)cc(F)cc3s2)c1O` gave a CC50 of 59.1 µM (RAW-ISG; cell viability; 24 h).
The IC50 of `CC1=CC[C@H]2[C@@H]([C@@H]1CC[C@H]1[C@]3(C)CC[C@H](O)C(C)(C)O[C@H]3CC[C@]1(C)O)C(C)(C)CC[C@]2(C)O` is reported as greater than 50 µM (ABCG2-482-R2 transfected HEK293; cell viability, MTT; 72 h).
`CC(=O)OC[C@H]1O[C@H]2OC(C)CCCCCC/C=C\CCCCCCCC(=O)O[C@H]3[C@H](O)[C@@H](O)[C@H](O[C@@H]2[C@@H](O)[C@@H]1O)O[C@@H]3COC(C)=O` (some centres unmarked) gave an HC50 of roughly 125 µg/mL (sheep red blood cells; 1 h, 37 °C, 5% DMSO).
For `CC(=O)Oc1ccccc1C(=O)CSc1nc(C)cc(C)c1C#N`, the CC50 was 12.3 µM (MRC-5 SV2 lung fibroblasts; cytotoxicity, resazurin; 3 days, 5% heat-inactivated FCS).
`C[C@@H]1O[C@@H](OC[C@H]2O[C@@H](Oc3c(-c4ccc(OCCO)c(OCCO)c4)oc4cc(OCCO)cc(O)c4c3=O)[C@H](O)[C@@H](O)[C@@H]2O)[C@H](O)[C@H](O)[C@H]1O` gave an amount transported of 2.12 ± 0.6% (Caco-2 monolayers; basolateral to apical transport; 100 µg/mL, 2 h).
`O=C(O)c1ccc(CN2C[C@@H]3C[C@H]2CN3Cc2ccc(Oc3ccc(-c4ncco4)cc3)cc2)cc1` — result for “slope of fold mRNA vs concentration”: -0.00222 (cryopreserved human hepatocytes, donor LLT; CYP3A4 induction, measured: CYP3A4 mRNA; concentration not given, 48 h).
`O=C(O)CCc1ccno1` gave a Kd of greater than 1000 µM (Protein deacetylase HDAC6, ZnF-UBD domain (HDAC6, Homo sapiens, UniProt Q9UBN7)).
For `CS(=O)(=O)CCNCc1ccc(-c2ccc3ncnc(Nc4ccc(OCc5cccc(F)c5)c(Cl)c4)c3c2)o1`, the Papp A-B was 1.42 ± 0.53 ×10⁻⁶ cm/s (MDCK-II cells, parental; bidirectional transwell permeability; 1 µM, 1 h, pH 7.4).
The efflux ratio of `O=C(CS)NCCCCCC(=O)Nc1cccc2cccnc12` is reported as 1.24 (Caco-2 monolayers; with: quinidine 264 µM; relative to: B-A over A-B).
Under “structural aberrations per 100 cells”, `COc1cccc(-c2n[nH]c(SCc3ccccn3)n2)c1OC` is recorded as 1 (primary human lymphocytes; 0.5 mg/mL, 3 h).
`O=C(O)[C@H]1O[C@@H](Oc2cc3oc(-c4ccccc4)cc(=O)c3c(O)c2O)[C@H](O)[C@@H](O)[C@@H]1O` has an amount transported of 2.56% (Caco-2 monolayers; basolateral to apical transport; 100 µg/mL, 2 h).
For `Cc1cc(Nc2ncnc3ccc(NC4=NC(C)(C)CO4)cc23)ccc1Oc1ccn2ncnc2c1`, the efflux ratio was 2.5 ± 0.52 (MDCK-II cells, parental; bidirectional transwell permeability; 1 µM, 1 h, pH 7.4).
`COc1ccccc1CC(=N)N1C[C@@H]2C(=O)CCC(c3ccccc3)(c3ccccc3)[C@@H]2C1` gave a CC50 of greater than 25 µM (PBMC).
`Cc1noc(C)c1Cn1cc(N2C(=O)CN(Cc3cccc(O)c3)C2=O)cn1`: “aberrant cells without gaps” 0.5% (human blood lymphocytes; 296.6 µg/mL, 3 h, with 2% S9).
`Cc1ccc(S(=O)(=O)Oc2ccc(NC(=O)c3cnccn3)cc2)cc1` has a viability of 82.7 ± 1.06% (HEK293T; MTT; 100 µM, 24 h).
`C[C@H](CCC(=O)N[C@@H](Cc1ccccc1)C(=O)O)[C@H]1CC[C@H]2[C@@H]3[C@H](O)C[C@@H]4C[C@H](O)CC[C@]4(C)[C@H]3CC[C@]12C` has a recovery of 110% (HEK293T; LC-MS; serum-free conditioned medium; 100 µM, overnight; relative to: non-conditioned medium).
`O=c1c(-c2ccc(O)cc2)coc2c([C@@H]3O[C@H](CO)[C@@H](O)[C@H](O)[C@H]3O)c(O)ccc12` has an amount transported of 36.2 ± 2.5% (Caco-2 monolayers; apical to basolateral transport; 100 µg/mL, 2 h).
The recovery of `C[C@H](CCC(=O)N[C@@H](Cc1ccc(O)cc1)C(=O)O)[C@H]1CC[C@H]2[C@@H]3[C@H](O)C[C@@H]4C[C@H](O)CC[C@]4(C)[C@H]3CC[C@]12C` is reported as 135% (HEK293T; LC-MS; serum-free conditioned medium; 100 µM, overnight; relative to: non-conditioned medium).
`CC(=O)O[C@H]1C(=O)[C@@]2(C)[C@H]([C@H](OC(=O)c3ccccc3)[C@]3(O)C[C@H](OC(=O)[C@H](O)[C@@H](NC(=O)c4ccccc4)c4ccccc4)C(C)=C1C3(C)C)[C@]1(OC(C)=O)CO[C@@H]1C[C@@H]2O` gave a viability of 45.1% and 47.4% (CHP-212 resistant sublines (heterozygous USP7 V517F); cell viability; 0.04115 µM).
The amount transported of `O=c1cc(-c2ccc(O)c(O)c2)oc2cc(O)cc(O)c12` is reported as 3.34 ± 0.02% (Caco-2 monolayers; basolateral to apical transport; 100 µg/mL, 2 h).
Under “log2 fold change”, `Cn1cc(-c2ccc(-c3cncc(Cl)c3N3CCC4(CCNC4=O)CC3)cc2)cn1` is recorded as 1.23 (COLO 205; gene expression, microarray, measured: RSU1 mRNA; concentration not given, 6 h; relative to: untreated cells).
With `O=C(O)CN1Cc2ccccc2C1=O` the Kd was greater than 1000 µM (Ubiquitin carboxyl-terminal hydrolase 13, ZnF-UBD domain (USP13, Homo sapiens, UniProt Q92995)).
`CCOc1cc2ncc(C#N)c(Nc3ccc(OCc4ccccn4)c(Cl)c3)c2cc1NC(=O)/C=C/CN(C)C` gave a Papp A-B of 2.64 ± 0.49 ×10⁻⁶ cm/s (MDCK-II cells, parental; bidirectional transwell permeability; 1 µM, 1 h, pH 7.4).
`CC[C@H](C)[C@H](NC(=O)[C@H](CCCCN)NC(=O)[C@H](CCC(N)=O)NC(=O)[C@@H](NC(=O)[C@@H](NC(=O)[C@H](CCCCN)NC(=O)[C@H](CCCNC(=N)N)NC(=O)[C@H](Cc1ccccc1)NC(=O)CN)[C@@H](C)CC)C(C)C)C(=O)N[C@@H](CCCNC(=N)N)C(=O)N[C@@H](CC(=O)O)C(=O)N[C@@H](Cc1ccccc1)C(=O)N[C@@H](CC(C)C)C(=O)N[C@@H](CCCNC(=N)N)C(=O)N[C@@H](CC(N)=O)C(=O)N[C@@H](CC(C)C)C(=O)N[C@H](C(N)=O)C(C)C` gave an HC50 of 80 µM (human erythrocytes; hemolysis; 1 h, 37 °C; relative to: Triton X-100).
`O=c1cc(-c2ccccc2)oc2cc(O)c(O)c(O)c12` has an amount transported of 2.18% (Caco-2 monolayers; basolateral to apical transport; 100 µg/mL, 2 h).
`CCCCCCCCCC(=O)N[C@@H](Cc1c[nH]c2ccccc12)C(=O)N[C@H](CC(N)=O)C(=O)N[C@@H](CC(=O)O)C(=O)N[C@@H]1C(=O)NCC(=O)N[C@@H](CCCN)C(=O)N[C@@H](CC(=O)O)C(=O)N[C@H](C)C(=O)N[C@@H](CC(=O)O)C(=O)NCC(=O)N[C@H](CO)C(=O)N[C@@H]([C@H](C)CC(=O)O)C(=O)N[C@@H](CC(=O)c2ccccc2N)C(=O)O[C@@H]1C` has an EC50 of 64 µM (L929; cytotoxicity, WST-1; mouse cells; 5 days, 5% FBS DMEM).
With `COc1cc(C2Oc3cc([C@H]4Oc5cc(O)cc(O)c5C(=O)[C@@H]4O)ccc3OC2CO)ccc1O` (some centres unmarked) the amount transported was 21.8 ± 7.3% (Caco-2 monolayers; basolateral to apical transport; 100 µg/mL, 2 h).
For `C[C@H]1[C@@H](O)O[C@@H]2O[C@@]3(C)CC[C@H]4[C@H](C)CC[C@@H]1[C@@]24OO3`, “time to onset of cytotoxicity” read 48 h (ML-2 cells; CellTox Green; concentration not given).
